Assay results collected from several papers.
Every numbered part comes from another study and shows a few of its results, in no order. “And” joins repeats or separate records; there may be more than shown.
Sequence of UniProt P42681 (whole entry, looked up): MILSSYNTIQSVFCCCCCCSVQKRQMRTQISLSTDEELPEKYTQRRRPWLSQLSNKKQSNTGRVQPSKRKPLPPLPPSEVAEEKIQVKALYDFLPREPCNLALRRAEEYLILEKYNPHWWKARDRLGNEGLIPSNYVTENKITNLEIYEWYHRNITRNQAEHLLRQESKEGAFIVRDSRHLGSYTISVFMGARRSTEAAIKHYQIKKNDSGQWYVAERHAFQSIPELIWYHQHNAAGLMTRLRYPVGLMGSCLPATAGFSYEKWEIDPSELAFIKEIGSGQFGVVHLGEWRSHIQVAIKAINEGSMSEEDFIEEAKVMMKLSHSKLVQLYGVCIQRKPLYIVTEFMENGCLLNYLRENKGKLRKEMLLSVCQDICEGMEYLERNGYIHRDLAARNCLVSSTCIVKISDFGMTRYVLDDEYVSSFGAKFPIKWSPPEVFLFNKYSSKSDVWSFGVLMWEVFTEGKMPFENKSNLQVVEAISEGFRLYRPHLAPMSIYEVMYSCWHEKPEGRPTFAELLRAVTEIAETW
Sequence of UniProt Q96RR4 (whole entry, looked up): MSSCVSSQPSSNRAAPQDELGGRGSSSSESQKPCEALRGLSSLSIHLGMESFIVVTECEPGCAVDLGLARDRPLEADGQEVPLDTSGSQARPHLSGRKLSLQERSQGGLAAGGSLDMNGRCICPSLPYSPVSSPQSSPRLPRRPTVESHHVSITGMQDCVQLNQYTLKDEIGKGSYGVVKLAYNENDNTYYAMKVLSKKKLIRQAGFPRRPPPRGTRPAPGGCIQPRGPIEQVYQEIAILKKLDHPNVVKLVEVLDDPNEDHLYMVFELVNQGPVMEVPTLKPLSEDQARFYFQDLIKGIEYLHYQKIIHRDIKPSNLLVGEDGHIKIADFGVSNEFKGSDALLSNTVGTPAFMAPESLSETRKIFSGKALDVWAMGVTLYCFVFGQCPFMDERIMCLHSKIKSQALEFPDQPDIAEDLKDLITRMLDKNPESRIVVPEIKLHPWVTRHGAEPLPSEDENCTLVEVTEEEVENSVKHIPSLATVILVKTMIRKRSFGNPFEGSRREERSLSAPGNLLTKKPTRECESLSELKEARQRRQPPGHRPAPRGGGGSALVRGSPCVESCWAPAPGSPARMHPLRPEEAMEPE
Sequence of UniProt P29322 (whole entry, looked up): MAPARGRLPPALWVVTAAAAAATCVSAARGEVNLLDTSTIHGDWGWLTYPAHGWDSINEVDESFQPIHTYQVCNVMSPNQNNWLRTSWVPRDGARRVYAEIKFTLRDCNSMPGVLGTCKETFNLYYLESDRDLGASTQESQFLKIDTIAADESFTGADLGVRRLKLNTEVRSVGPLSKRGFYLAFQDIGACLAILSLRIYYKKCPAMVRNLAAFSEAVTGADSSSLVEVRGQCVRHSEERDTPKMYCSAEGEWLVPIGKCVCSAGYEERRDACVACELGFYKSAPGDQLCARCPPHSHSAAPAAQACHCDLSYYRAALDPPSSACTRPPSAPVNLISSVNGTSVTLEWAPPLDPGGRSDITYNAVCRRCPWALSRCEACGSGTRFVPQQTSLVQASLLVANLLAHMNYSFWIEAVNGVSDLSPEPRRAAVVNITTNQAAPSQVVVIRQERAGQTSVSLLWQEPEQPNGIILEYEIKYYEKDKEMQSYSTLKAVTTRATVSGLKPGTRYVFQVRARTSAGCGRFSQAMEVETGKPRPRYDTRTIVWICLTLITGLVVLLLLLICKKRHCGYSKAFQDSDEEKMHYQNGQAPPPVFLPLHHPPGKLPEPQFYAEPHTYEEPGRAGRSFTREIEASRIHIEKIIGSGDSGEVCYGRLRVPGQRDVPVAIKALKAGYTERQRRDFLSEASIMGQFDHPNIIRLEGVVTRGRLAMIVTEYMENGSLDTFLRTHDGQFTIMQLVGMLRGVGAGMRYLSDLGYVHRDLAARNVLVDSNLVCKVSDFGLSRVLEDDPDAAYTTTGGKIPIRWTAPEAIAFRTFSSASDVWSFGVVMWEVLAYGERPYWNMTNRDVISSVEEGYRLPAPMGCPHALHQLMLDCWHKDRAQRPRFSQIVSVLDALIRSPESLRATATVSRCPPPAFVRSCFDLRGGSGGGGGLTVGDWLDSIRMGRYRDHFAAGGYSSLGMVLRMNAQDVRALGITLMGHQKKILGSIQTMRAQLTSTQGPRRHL
Sequence of UniProt P17948 (whole entry, looked up): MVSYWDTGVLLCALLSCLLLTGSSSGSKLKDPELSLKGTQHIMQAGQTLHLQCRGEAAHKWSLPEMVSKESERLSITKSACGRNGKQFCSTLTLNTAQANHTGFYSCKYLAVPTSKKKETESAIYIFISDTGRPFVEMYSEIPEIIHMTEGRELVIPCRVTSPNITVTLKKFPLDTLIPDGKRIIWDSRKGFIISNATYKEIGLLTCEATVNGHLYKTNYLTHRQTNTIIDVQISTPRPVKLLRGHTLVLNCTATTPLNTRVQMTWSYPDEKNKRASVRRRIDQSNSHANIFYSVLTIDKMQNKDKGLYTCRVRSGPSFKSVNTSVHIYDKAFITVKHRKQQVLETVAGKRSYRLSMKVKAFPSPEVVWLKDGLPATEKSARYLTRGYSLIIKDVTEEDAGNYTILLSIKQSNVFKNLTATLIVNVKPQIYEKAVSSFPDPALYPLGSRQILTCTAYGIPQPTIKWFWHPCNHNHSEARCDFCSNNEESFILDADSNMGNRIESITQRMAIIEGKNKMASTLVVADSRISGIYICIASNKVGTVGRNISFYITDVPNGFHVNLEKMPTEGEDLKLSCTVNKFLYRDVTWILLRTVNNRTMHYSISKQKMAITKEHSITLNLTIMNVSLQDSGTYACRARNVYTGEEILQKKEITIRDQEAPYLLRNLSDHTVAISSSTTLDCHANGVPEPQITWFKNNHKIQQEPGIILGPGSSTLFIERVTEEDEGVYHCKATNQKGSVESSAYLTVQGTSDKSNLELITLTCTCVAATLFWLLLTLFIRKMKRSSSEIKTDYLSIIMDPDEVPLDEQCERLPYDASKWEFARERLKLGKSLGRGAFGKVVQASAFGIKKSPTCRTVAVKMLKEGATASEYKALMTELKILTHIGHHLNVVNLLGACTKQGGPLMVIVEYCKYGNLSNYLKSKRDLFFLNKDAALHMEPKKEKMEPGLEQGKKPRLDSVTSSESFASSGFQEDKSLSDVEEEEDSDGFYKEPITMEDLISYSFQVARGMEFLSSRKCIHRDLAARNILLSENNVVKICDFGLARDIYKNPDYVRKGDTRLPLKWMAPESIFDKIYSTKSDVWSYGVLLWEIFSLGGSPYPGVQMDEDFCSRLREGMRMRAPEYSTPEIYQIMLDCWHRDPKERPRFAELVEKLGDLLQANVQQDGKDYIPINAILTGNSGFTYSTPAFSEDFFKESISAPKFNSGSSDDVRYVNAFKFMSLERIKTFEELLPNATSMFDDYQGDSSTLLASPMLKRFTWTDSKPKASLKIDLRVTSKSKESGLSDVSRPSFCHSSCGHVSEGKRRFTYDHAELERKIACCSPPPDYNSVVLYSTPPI
Sequence of UniProt Q04759 (whole entry, looked up): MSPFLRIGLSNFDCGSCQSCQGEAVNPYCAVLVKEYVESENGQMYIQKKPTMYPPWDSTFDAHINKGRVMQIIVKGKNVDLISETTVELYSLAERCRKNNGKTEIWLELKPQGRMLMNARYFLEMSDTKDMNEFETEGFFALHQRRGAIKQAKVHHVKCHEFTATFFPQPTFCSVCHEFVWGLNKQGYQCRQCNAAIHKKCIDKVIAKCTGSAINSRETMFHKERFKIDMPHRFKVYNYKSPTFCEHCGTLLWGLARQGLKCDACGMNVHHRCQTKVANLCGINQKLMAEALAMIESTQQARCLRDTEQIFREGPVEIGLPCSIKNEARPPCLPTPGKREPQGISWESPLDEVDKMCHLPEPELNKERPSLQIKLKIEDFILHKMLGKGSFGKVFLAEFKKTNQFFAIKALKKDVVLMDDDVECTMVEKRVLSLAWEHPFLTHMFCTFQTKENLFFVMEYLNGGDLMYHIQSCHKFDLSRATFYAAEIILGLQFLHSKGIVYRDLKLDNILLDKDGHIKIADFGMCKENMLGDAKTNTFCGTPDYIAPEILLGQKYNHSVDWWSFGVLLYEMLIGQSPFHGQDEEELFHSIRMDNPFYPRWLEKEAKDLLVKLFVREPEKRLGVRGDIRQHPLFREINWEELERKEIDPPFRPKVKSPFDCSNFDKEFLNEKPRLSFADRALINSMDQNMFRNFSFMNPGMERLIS
Sequence of UniProt Q86UE8 (whole entry, looked up): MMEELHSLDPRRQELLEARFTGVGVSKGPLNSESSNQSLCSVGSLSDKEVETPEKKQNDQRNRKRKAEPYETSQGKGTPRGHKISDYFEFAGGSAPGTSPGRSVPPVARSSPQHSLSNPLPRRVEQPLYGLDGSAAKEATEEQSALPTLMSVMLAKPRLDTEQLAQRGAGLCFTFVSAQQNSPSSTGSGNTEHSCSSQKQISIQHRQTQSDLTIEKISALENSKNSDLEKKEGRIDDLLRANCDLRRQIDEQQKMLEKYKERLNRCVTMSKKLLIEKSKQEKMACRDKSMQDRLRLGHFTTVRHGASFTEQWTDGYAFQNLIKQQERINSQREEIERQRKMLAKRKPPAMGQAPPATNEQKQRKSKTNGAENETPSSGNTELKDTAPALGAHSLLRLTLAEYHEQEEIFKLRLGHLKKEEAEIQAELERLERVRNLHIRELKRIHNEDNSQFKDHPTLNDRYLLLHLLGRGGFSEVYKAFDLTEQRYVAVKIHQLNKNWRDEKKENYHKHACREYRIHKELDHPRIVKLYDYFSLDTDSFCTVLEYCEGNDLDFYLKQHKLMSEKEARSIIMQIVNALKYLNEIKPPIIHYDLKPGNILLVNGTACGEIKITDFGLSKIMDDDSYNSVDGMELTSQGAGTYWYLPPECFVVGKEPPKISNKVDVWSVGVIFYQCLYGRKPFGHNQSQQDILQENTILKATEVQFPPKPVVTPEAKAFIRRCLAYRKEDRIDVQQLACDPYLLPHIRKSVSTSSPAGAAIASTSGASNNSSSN

Study 1
Observed: necroptosis
Action: inhibitor
Technique: CCK-8
Cell line: L929
Species: mouse
With: TNF-α
Endpoint: EC50
Cc1cc(-c2cnc(N)c3c(-c4ccc5scnc5c4)csc23)n(C)n1: 3.29 µM
Cc1c(NC(=O)c2cccn(-c3ccc(F)cc3)c2=O)ccc(Oc2ccnc(NC(=O)C3CC3)c2)c1C: 1.07 µM
CC(C)(C)n1nc(-c2ccc(Cl)cc2)c2c(N)ncnc21: 5.13 µM

Study 2
SMILES: CC[C@@]1(c2cccc(C(F)(F)F)c2)C2=C(Nc3n[nH]cc31)[C@H](F)C(C)(C)CC2=O (single isomer, unassigned)
Tested at: 1 µM
Endpoint: remaining binding
TXK (Homo sapiens, UniProt P42681); kinase binding, KINOMEscan; reference: DMSO control: 100%
TLK2 (Homo sapiens, UniProt Q86UE8); binding, competition with immobilised ligand: 97%
PRKCQ (Homo sapiens, UniProt Q04759); binding, competition with immobilised ligand: 80%
FLT1 (Homo sapiens, UniProt P17948); binding, competition with immobilised ligand: 99%
DYRK2 (Homo sapiens, UniProt Q92630); kinase binding, KINOMEscan; reference: DMSO control: 100%
EPHA8 (Homo sapiens, UniProt P29322); kinase binding, KINOMEscan; reference: DMSO control: 100%
CAMKK1 (Homo sapiens, UniProt Q8N5S9); binding, competition with immobilised ligand: 87%
CAMKK2 (Homo sapiens, UniProt Q96RR4); binding, competition with immobilised ligand: 100%

Mixed results
CN1CCC[C@H]1COc1nc2c(c(N3CCN(C(=O)C4CC4)[C@@H](CC#N)C3)n1)CCN(c1cccc3cccc(Cl)c13)C2
IC50 (GTPase KRas (KRAS, Homo sapiens, UniProt P01116, Q61L); target engagement in cells, BRET): 3.2 µM

Cn1cc(-c2cccc(CN3CCC4(CC3)COc3c4ccc4c3CN([C@H]3CCC(=O)NC3=O)C4=O)c2)cn1
body weight change (Crbn I391V mouse, MC-38 tumour; 30 mg/kg, day 11, with: anti-LAG3 antibody 10 mg/kg weekly): 0.8% and -2.4% and 9% and 8.5%

C#Cc1cccc2cc(O)cc(-c3ncc4c(N5CC6CCC(C5)N6)nc(OCC56CCCN5CCC6)nc4c3F)c12
normalized BRET (GTPase HRas (HRAS, Homo sapiens, UniProt P01112); binding, competitor, NanoBRET; HEK293; 370 nM): 89.3% and 100% and 101% and 73.3%

Cc1nc(C)c(C=[N+]([O-])C(C)(C)C)nc1C
pSer9-GSK3β/total GSK3β (Western blot; MPTP mouse model; 30 mg/kg): 159 and 276 and 181 and 190

CN1CCC[C@H]1COc1nc2c(c(N3CCN(C(=O)C(F)(F)F)[C@@H](CC#N)C3)n1)CCN(c1cccc3cccc(Cl)c13)C2
normalized BRET (GTPase KRas (KRAS, Homo sapiens, UniProt P01116, Q61H); binding, competitor, NanoBRET; HEK293; 5.08 nM): 95.8% and 101% and 92%

A few entries again (mixed results):
Cc1nc(C)c(C=[N+]([O-])C(C)(C)C)nc1C
pSer9-GSK3β/total GSK3β (Western blot; MPTP mouse model; 30 mg/kg): 159 and 276 and 181 and 190

C#Cc1cccc2cc(O)cc(-c3ncc4c(N5CC6CCC(C5)N6)nc(OCC56CCCN5CCC6)nc4c3F)c12
normalized BRET (GTPase HRas (HRAS, Homo sapiens, UniProt P01112); binding, competitor, NanoBRET; HEK293; 370 nM): 89.3% and 100% and 101% and 73.3%
